Results collected from several papers.
A part holds a random share of what one study measured.

Sample 1
Target: Sal-like protein 4, full length isoform A (SALL4, Homo sapiens, UniProt Q9UJQ4, residues 1-1053)
UniProt Q9UJQ4, sequence (whole entry, looked up): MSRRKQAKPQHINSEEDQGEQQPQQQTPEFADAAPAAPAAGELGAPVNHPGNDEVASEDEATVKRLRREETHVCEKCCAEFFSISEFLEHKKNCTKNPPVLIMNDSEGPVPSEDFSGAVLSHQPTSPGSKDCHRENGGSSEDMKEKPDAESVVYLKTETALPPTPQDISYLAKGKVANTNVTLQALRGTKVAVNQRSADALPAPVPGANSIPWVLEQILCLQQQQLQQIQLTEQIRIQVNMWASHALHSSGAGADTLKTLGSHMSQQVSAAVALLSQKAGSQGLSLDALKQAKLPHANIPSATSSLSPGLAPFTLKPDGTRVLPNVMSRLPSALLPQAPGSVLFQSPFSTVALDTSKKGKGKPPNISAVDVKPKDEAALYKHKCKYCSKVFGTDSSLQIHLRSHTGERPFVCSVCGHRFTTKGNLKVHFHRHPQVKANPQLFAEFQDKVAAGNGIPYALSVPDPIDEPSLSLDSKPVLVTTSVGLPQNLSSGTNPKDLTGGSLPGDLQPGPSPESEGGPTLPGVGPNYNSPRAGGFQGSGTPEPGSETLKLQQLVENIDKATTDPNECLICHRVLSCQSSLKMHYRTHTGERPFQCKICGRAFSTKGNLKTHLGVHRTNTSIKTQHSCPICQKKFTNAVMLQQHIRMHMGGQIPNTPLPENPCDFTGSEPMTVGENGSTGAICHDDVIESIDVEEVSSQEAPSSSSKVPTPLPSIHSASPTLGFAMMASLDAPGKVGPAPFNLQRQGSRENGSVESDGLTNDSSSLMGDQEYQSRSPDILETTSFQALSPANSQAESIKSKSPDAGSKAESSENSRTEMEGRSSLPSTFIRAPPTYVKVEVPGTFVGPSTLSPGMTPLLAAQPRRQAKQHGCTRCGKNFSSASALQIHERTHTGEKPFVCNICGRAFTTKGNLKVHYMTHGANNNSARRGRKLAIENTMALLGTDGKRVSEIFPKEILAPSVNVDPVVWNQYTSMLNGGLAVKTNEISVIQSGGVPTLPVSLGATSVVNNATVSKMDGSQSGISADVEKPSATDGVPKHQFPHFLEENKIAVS
Method: universal PBM
Molecule type: double-stranded DNA, one strand shown
Matrix: in vitro
Concentration: 600 nM
Notes: 8-mer, flanks averaged, mean of replicates
Reading: higher = stronger binding
`GCGCATAC` has an E-score of -0.0557.
The E-score of `ACTGTCGA` is reported as -0.0394.
For `CAAGGCCG`, the E-score was -0.271.
`CACTTCGC` gave an E-score of -0.0598.
With `CGATGGAG` the E-score was -0.174.
With `AGAGAACT` the E-score was -0.0687.
`GGTCGCGA` has an E-score of -0.211.
`AAAGGGGG` gave an E-score of -0.116.
`ACCAGATG` has an E-score of -0.0547.
With `ATCTGGCG` the E-score was -0.0757.
`ATATCTCG` has an E-score of 0.272.
`AGCCTACC` has an E-score of -0.204.

Sample 2
Target: Interferon regulatory factor 7, full length, phosphomimetic (IRF7, Homo sapiens, UniProt Q92985, residues 1-503, S101K/S471D/S472D/S475D/S476D/S477D/S483D/S484D/S487D)
UniProt Q92985, sequence (whole entry, unmodified, looked up): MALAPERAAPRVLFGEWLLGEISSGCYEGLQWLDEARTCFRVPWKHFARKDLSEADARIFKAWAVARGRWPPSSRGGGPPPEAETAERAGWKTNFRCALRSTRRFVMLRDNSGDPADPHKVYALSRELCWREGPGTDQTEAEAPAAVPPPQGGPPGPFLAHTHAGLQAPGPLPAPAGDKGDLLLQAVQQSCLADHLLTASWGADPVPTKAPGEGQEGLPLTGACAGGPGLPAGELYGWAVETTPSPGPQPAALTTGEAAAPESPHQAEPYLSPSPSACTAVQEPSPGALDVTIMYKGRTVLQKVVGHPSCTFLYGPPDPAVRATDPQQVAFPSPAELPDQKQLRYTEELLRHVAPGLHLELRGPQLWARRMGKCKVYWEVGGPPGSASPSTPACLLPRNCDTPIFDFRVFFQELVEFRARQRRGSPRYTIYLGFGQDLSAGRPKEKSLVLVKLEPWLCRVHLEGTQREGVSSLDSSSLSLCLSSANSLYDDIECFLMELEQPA
Method: protein-binding microarray
Molecule type: double-stranded DNA, one strand shown
Matrix: in vitro
Concentration: 250 nM
Notes: 60-bp whole probe
Added: salmon DNA 0.4 mg/ml
Reference: random background probes
Reading: higher = stronger binding
All sequences stand within: GCCTAGCAC … GTCTTGATTCGCTTGACGCTGCTG
`TTAGGACTGGCGTATCGGTTAGTGCTA` gave a log fluorescence of -0.479 z-score.
With `TTAGGTCTACTTTTCCTTTAGTGCTAG` the log fluorescence was 0.928 z-score.
For `GACGGTCTCGTTCTCGGGACGTGCTAG`, the log fluorescence was 1.54 z-score.
For `GACGATTTCAATTTCGAGACGTGCTAG`, the log fluorescence was 0.927 z-score.
`TTATGACTGGGACTGGGTTAGTGCTAG` has a log fluorescence of 0.0601 z-score.

Sample 3
Target: RNA binding protein fox-1 homolog 2, RRM domain, GST-SBP tag (RBFOX2, Homo sapiens, UniProt O43251-10, residues 100-194)
Method: RNA Bind-n-Seq
Molecule type: RNA
Matrix: in vitro
Concentration: 365 nM
Notes: natural RNA segment, single round, ends assumed
Reference: no-protein control
Reading: higher = stronger binding
All sequences stand within: GGGAGUUCUACAGUCCGACGAUC … UGGAAUUCUCGGGUGCCAA
Construct (chain): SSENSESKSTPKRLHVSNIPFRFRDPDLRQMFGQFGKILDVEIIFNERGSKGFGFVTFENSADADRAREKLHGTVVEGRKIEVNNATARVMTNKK
For `AAUAAAUAAAAGUUAUAUCAGACAGUACUGACAGACAAUAAAGAAACCCCCCCCCCAGGGUGCCCAGGUUAAGUCCCAUGUUCUGUGCUCCUGUUUGGUUUUGGGAGGCA`, “RBNS enrichment (R)” read 1.2.
For `GGUUGGAGGGGCCUCCCUCUGGCUUCUGCAUCUGCGCCAGCAAACAUCACUGCCGUUGGUCUCUCAUGACUUAACUGGCUUCCCUCUGCUGCUGCCUUGGCUUCCUCCUA`, “RBNS enrichment (R)” read 0.962.
`AGGUUGGGUGCAUUGUCAGUAAAAAGGGCUUAUUUGUUUCAUUUUACUUUCCUGCAAAAUUUUCUUCAAAGCAACAAGUCCUAGGAGCACACAAAGCAACCCAAAGGCUU`: “RBNS enrichment (R)” 0.341.
`UCUGGGACUCCUGUCUAGGUGCCCCUGAUGACGGGAUGCUCUUUAAAUAAUAAAGAUGGUUUUGAUUAAUGUGGCCUCCGAGCUUACAAAUGUACACAGCAAUGAGGACA` — result for “RBNS enrichment (R)”: 0.495.
Under “RBNS enrichment (R)”, `AGUGUCUUUCUUUGGUGCCUUUCCUGUUCAGCAUUCUCAGCCUGUGGCAGUAAAGAGAAACUUUGCUACACAACAAAAAGCUGCUAAAUCUCCCUCUAUUUUUUUAAAAU` is recorded as 0.532.
For `CCUCCAUCAUUUGGUUUCCUCUUGGCUUUGGGGAUACUUCUAAAUUUUGGGAGCUCCUCCAUCUCCAAUGGCUGGGAUUUGUGGCAGGGAUUCCACUCAGAACCUCUCUG`, “RBNS enrichment (R)” read 0.28.
For `AGAUUUCAAGCUGUGUUGGUGUUGGGACCAGCAGAAGGCAAACGUCCAGCCAACACACAGGACUGUAAGAGGACUCUGAGCUACGUGCCCUGUGAAGACCCCCAGGCUUU`, “RBNS enrichment (R)” read 0.472.
For `UCACCUCUUAAAAACAUUGUUUCCACUUUAAAAGUAAACACUUAAUAAAUUUUUGGAAGAUCUCUGAUUUUUAUGUGUUCAUUUAUGAACAUUAAAUACGAAAAUAUUAU`, “RBNS enrichment (R)” read 0.513.
`AGGUCAGCGUUAUCCUGCCAGACAUCUGGGUCAGGAACUUGGGAGACAACAUCUGCUUACCUGGCAGAACUCCCCACUCCACUCCCCCAGGUGGGCUGGGUGGAAGGACC`: “RBNS enrichment (R)” 0.303.
For `AGUGUCCUAAAGGGAGUGCACUUCUUUGAAGCUGGUGUGUUAAUACUAUGUAAUAAAUGGUUAACUUUCAAAUGAUGCUGCUGCCAAAAUUAUAUUAAUAGUGAGUUUCA`, “RBNS enrichment (R)” read 0.431.
`AAUUUGCUCUGAAAAGAAGCACAGUUGGGUAGACGAGGCCCGUGGAUGUCAUUUUUUUUUUUCUGGGCAGAAGACAGUAUGGGGACCCAAGAAGUUCCCAUCAAAGACCA`: “RBNS enrichment (R)” 0.32.

Mixed results
`PhoQ, residues 284 288 289 292 302 303 TNSAEL` gave a fold induction of 16.2 (PhoP, residues 12 14 15 18 19 VQALL (Escherichia coli, UniProt P23836); Sort-seq, measured: YFP reporter; E. coli; PhoQ-PhoP variant library, added: 10 µM Mg2+; reference: high Mg2+ state, higher = stronger signaling).

Excerpt of the above (sample 3):
For `AAUAAAUAAAAGUUAUAUCAGACAGUACUGACAGACAAUAAAGAAACCCCCCCCCCAGGGUGCCCAGGUUAAGUCCCAUGUUCUGUGCUCCUGUUUGGUUUUGGGAGGCA`, “RBNS enrichment (R)” read 1.2.
For `UCACCUCUUAAAAACAUUGUUUCCACUUUAAAAGUAAACACUUAAUAAAUUUUUGGAAGAUCUCUGAUUUUUAUGUGUUCAUUUAUGAACAUUAAAUACGAAAAUAUUAU`, “RBNS enrichment (R)” read 0.513.
`AGGUUGGGUGCAUUGUCAGUAAAAAGGGCUUAUUUGUUUCAUUUUACUUUCCUGCAAAAUUUUCUUCAAAGCAACAAGUCCUAGGAGCACACAAAGCAACCCAAAGGCUU`: “RBNS enrichment (R)” 0.341.
